Published values from different studies.
Parts stem from different laboratories: compare values within a part only. Substitutions count along the parent as printed.

Study 1
Target: CCNA1, cyclin fold, Cln2 fusion (human)
Method: yeast growth competition, sequencing
Medium: yeast
Setting: weak parent motif
Reference: not given
Direction: higher = stronger binding
Endpoint: normalised enrichment score
Starting sequence: ORC1 docking peptide (human); PRARKRLELGNLG; partner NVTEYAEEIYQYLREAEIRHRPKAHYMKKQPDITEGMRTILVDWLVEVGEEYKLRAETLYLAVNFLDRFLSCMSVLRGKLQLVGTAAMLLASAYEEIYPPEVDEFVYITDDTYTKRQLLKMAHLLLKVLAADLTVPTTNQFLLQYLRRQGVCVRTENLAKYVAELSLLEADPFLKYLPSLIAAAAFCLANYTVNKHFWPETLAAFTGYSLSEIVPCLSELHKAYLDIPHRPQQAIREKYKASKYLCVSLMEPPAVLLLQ
PRARKRLELGKLG [N11K]: 0.143
DRARKRLELGNLG [P1D]: 0.439
PRARKRLELGNEG [L12E]: 0.551
PRARKRLQLGNLG [E8Q]: 0.443
PRARKRLEQGNLG [L9Q]: 0.578
PRWRKRLELGNLG [A3W]: 0.387
PRARPRLELGNLG [K5P]: 0.186
PRARKRLELGSLG [N11S]: 0.405
PRARKRLELGVLG [N11V]: 0.644
PRARKRLFLGNLG [E8F]: 0.31
PRAAKRLELGNLG [R4A]: 0.199
PRARKRLEFGNLG [L9F]: 1.28
PRARKRGELGNLG [L7G]: 0.228

Study 2
Target: RNA binding protein fox-1 homolog 2, RRM domain, GST-SBP tag (RBFOX2, Homo sapiens, UniProt O43251-10, residues 100-194)
Method: RNA Bind-n-Seq
Form: RNA
Medium: in vitro
Concentration: 365 nM
Setting: natural RNA segment, single round, ends assumed
Reference: no-protein control
Direction: higher = stronger binding
Endpoint: RBNS enrichment (R)
Construct (chain): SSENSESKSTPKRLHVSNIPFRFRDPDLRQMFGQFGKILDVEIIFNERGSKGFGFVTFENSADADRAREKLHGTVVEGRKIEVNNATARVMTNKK
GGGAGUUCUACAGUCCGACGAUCAUGUCUAAAGUGAUUAUCUUUUUUCCCCCCAAGUUAGUCUUAAAUCUUUUGGGUUUGAAUGAAGGUUUUACAUAAGAAAUUAUUAAAAACAAGGGGGGUGGGUAAUAAAUUGGAAUUCUCGGGUGCCAA: 1.2
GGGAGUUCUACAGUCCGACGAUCGCUUAUGAGCAGUAAUUUAAGAAAACCCACAAAACUUGAUUGUGAAAAACCGAAUAACCAAGCAGCGCGUCUGCUCUUUCCCUGAUUCGCAUGUGACUGUGAUGCUUUCCUGGAAUUCUCGGGUGCCAA: 0.552
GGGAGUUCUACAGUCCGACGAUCAGUACCAGUUCUGCCAGCCACAGUGAGCCCCUAUUAUUACUUUCAGAUUGUCUGUGACACUCAAGCCCCUCUCAUUUUUAUCUGUCUACCUCCAUUCUGAAGAGGGAGGUUGGAAUUCUCGGGUGCCAA: 0.796
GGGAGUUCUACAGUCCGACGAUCAGUUUAAGUGUUUGAACAACUAUAUGCACUUACGGUUGUGUGUUUAAAAUGUCUCUCUCACCCCCUAGCUUCAUGAUGUGACUCUUAAAAAACUAUAAUAGUUAACAACUUGGAAUUCUCGGGUGCCAA: 0.374
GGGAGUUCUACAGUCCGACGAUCAUACAGGGCCUGGUGGUCUGCUCCAUCUGGCCCCUGGCCCAUCUCUUCUGUGCCUUAGUCACAUAUGAAAGCCCCUCCCCAGUUCCCGUCUGCUCCAGGCACUCCUCGUUUGGAAUUCUCGGGUGCCAA: 0.363
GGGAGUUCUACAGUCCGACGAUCUGAAUUUUUAAUGCAGCAAUGUUGACUUUGUUUCAUACUGCCAAUAAACUCUUAAUACUAAAUACUGGUAAAGCAUAUUCUUUUUUUUUUUUCUAUUUGGAAAGACGCCAUGGAAUUCUCGGGUGCCAA: 0.8
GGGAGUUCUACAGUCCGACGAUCCAACCUUUCCUCUUUGUUCUGAGGGACACGGACACGGGGGCCCUCCUCUUCAUAGGCAGAAUCCUGGACCCCAGUAGUACUUAAUGUCUCAGUGCUCUACAGAACCCCCAUGGAAUUCUCGGGUGCCAA: 0.374
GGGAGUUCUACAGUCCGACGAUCUUGUACACUAAGAUUUCAUGCAGACACCAUUGCUGUGGAGCCGAUUGAAAUUUAACCCUGCUCCAUAUUCUAACCUGUUAUGCAGGUACACUGUUAUCUUGCCCUGUGUCUGGAAUUCUCGGGUGCCAA: 0.408
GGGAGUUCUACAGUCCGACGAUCUAAGCAAAUCCCACUGCCCUUAAAAUAAGGAAGUUAUGCCUGGUUGUCUGUGAAUGGAACCUCAGUAGGUAAUCCUGAUGAAGCUUAAAACCUUAGGGCAGUGUCUACAUUGGAAUUCUCGGGUGCCAA: 0.326
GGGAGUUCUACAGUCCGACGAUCAAAUCACUGCCUCAUUCUUAUUUCAAGAUGAAUUUCUAUACAGACUAGAUGUUUUUCUGAAGAUCAAUUAGACAUUUUGAAAAUGAUUUAAAGUGUUUUCCUUAAUGUUCUGGAAUUCUCGGGUGCCAA: 0.383
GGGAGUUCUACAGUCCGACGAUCUUUGCUACUGAAUGCUUACACUAAUCUUGGUGUUUAAUGUUACAUGCUUAAAUUCUUUUCAGUUUUCACAGUGGCACAUUUAGGCAUGGGGAUAGUACUAAUUAUGAAAUUGGAAUUCUCGGGUGCCAA: 1.24

Study 3
Target: RING finger protein unkempt homolog, zinc fingers 1-6, GST-SBP tag (UNK, Homo sapiens, UniProt Q9C0B0, residues 30-357)
Method: RNA Bind-n-Seq
Form: RNA
Medium: in vitro
Concentration: not given
Setting: RNA with constant flanks, human-mouse chimeric sites, ends assumed
Reference: input RNA pool
Direction: higher = stronger binding
Endpoint: bound/input enrichment
Target sequence (chain): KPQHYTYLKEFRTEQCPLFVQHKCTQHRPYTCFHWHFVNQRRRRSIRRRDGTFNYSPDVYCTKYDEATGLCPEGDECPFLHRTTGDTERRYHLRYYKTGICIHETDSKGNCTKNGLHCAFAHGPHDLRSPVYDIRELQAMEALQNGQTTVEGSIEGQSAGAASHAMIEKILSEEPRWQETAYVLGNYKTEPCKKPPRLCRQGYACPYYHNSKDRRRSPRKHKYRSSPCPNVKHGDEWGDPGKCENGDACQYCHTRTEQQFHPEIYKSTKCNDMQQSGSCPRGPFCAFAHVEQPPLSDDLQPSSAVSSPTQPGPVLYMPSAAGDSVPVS
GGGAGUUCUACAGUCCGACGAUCCCAAUCGUGGAGCAGUACUUGAAGACAAAGAAAAAUUCUAAUAAUUUAAUCAUCAAGUACAUUAGCUGCCGCCUGCUGACACUCAUCAUUAUACUGUUAGCGUGUAUCUACUUGAGCUAUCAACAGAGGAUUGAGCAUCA: 0.203 ratio
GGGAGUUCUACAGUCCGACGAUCUUAAUCCCCUUUACUGCUCCCCCACUUCUCAUGGUAAUGACAAAAACUUAUAUCCCCGUCCUAGCUUUCACUCAGAUGGCUUAUGGAGCCAGUUUCCUAGCUUUCUUGGGAGGGAUCAGACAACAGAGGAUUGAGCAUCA: 0.28 ratio
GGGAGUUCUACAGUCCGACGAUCCGCUUGGAUGAGGCGGGUGUCACAGAUGAAGUGCUAGAUUCUGCCAUGCAAGCCUUCUUACUAGAAAUUAUCGUUAAACAUGGGGAGCCGGCACCUUAUUUAUGUAACAAAGAUCCGUUUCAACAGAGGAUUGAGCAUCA: 0.426 ratio
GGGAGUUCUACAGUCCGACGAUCUCUUAACUUAUUCAUUUAACUUAUUUUUAGCACUUAGUAAAUAUUGUUAGUCUUAGACAAUAGCUCACAUCUUUACAGAAGCAUGCCCUCCCUGUCCAUUUGUCUUAUAACAUGACCCAGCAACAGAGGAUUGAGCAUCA: 215 ratio
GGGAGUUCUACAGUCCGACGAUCGAGCGUCUUGCCCGCACCGGGAUCAUAGUGACCACUAGUGAGGCUGUCCUCCUACAGCUGGUGGCUGACAAAGACCACCCGAAGUUCAAGGAAAUUCAGAACCUAAUUAAGGCGAGUGCCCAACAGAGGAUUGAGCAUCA: 0.143 ratio
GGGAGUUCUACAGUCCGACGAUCUUGAAAACAAACUGAUUUAAGUUUGAGUAUCACAAUGUUAGCUUUCUAAUUCCACACAAGUACUUGGUUUUUACAGUUUAUAAUCUGACAUCACCCCAGCGCCAUUUGUAAAGAGCAACUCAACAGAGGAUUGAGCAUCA: 0.47 ratio
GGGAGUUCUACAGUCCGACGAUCGAACCUGCUCUCUCUGAUGAAGAUGAGGACAGUGAUGAUGAUGUUGAACCCAUUUCUGAAUUUCGAUUUGUGCCCAGUGAUAAGUCAGCAUUGGAGGCGAUGUUCACAGCAAUGUGUGAGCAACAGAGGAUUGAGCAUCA: 0.209 ratio
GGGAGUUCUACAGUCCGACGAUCAGGAGGAGAUUAAAGGGUGAGAGUGGGGUGGAAGACUGUGUCAUGGCUCUGGAGACACUGUUCAGUGUCCUGCUUUCUCUGUGCAGACUGAUGGCCCCUUACACGCCCUUUCUGACUGAGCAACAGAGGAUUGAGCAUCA: 0.0676 ratio
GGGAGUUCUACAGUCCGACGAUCAACAGAUUUCUCAAGCACAUUCCAAGCGAGAAUGCUGAAAUAGUCAUUGUUGCCCAUGUGCCUUCUGACUGAGCUUUAAUGCUGUUCCAUGUUACAUCUUUCCUUCACUCCAGAAUUGUUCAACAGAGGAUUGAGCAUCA: 0.169 ratio
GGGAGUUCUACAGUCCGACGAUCUCUGGUCACACUCGUGUGUAUGGUGUUUGCUUUGUGGAUACUUCACUGGGCAAGUUUUUCAUCGGCCAGUUUUCGGAUGACCGCCACUGUUCCAGAUUUAGGACGCUAGUGGCUCACUAUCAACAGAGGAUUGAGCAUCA: 0.229 ratio
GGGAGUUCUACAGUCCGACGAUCGAUGAUAAUCACACAAACAAGUCACUGUUACAUGACCAGCCUUGGGAUUCUUUUCCUGAUUAGUAUUCUCCCUGGAACCACUAGCCAAGGGGAAUCAAGACGACAAGAACCCGGGGACUUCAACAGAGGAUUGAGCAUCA: 0.189 ratio

Other studies, line by line
PhoQ, residues 284 288 289 292 302 303 TAVSDG  fold induction (PhoP, residues 12 14 15 18 19 AGCRL (Escherichia coli, UniProt P23836); Sort-seq, measured: YFP reporter; E. coli; PhoQ-PhoP variant library, together with: 10 µM Mg2+; reference: high Mg2+ state, higher = stronger signaling): 12.8

Some of these lines once more (study 1):
PRARKRLEFGNLG [L9F]: 1.28
PRARPRLELGNLG [K5P]: 0.186
PRARKRLELGSLG [N11S]: 0.405
PRARKRGELGNLG [L7G]: 0.228
PRARKRLELGVLG [N11V]: 0.644
PRARKRLEQGNLG [L9Q]: 0.578
